Measured values pooled from the literature.
Every numbered part comes from another study and shows a few of its results, in no order.

Series 1
Target: Replicase polyprotein 1ab, main protease (rep, Severe acute respiratory syndrome coronavirus 2, UniProt P0DTD1)
Observed: enzyme activity
Action: inhibitor
Tested at: 20 µM
Notes: hit confirmation, no DTT
| Compound | inhibition |
| --- | --- |
| O=C(/C=C/c1ccc2ccc(C(F)(F)F)cc2n1)c1ccncc1 | 79.2% |
| S=C(S)N1CCCC1 | 99.5% |
| C=C1C(=O)[C@]23[C@H](O)[C@H]1CC[C@@H]2[C@@]12CO[C@]3(O)C[C@@H]1C(C)(C)CC[C@@H]2O | 95.1% |

Series 2
Target: RNA binding protein fox-1 homolog 2, RRM domain, GST-SBP tag (RBFOX2, Homo sapiens, UniProt O43251-10, residues 100-194)
Method: RNA Bind-n-Seq
Molecule type: RNA
Medium: in vitro
Tested at: 365 nM
Notes: natural RNA segment, single round, ends assumed
Relative to: no-protein control
Reading: higher = stronger binding
Constant ends, left off below: GGGAGUUCUACAGUCCGACGAUC … UGGAAUUCUCGGGUGCCAA
Target sequence (chain): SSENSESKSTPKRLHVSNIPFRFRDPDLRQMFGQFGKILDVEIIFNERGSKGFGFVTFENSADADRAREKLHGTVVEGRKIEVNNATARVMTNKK
| Oligonucleotide | RBNS enrichment (R) |
| --- | --- |
| CCAACCUCUGCCCCAGUAGUUGCCUCCAGGGCGGAAGCAGGGAUGCGAAAGAUGGCUACCUGGGGGGCUGCGGGGCUUGGGGGAGUUUACAAUCCCAUCCUAUGGCCUGC | 0.448 |
| GGAGGGUCGGUCCAUUACAGACCCACAUCCUGGAGCACCCCCAUCUCCAUGUGUGAAGUAGCUUCCUCCCUCAGCCUGCAAGGGUCCGAUUUGCCAUCGAAAGACGACCU | 0.685 |
| AGGUUUUUAAAAAGUAGCUCUUCCCCAACCCCGUUGCUAGCUUGUUGCAAUAUAAAAGCCCUGGUGCACCUGAAUUUACUCCUGGCCUUACUAAUGAUUCAUAAUGUGAU | 1.26 |
| GAUGGGCUUCUGUUCUCUGCUGAGGGCCAAUACCCUACUGUGGGGAGAGAUGGCACACCAGAUGCUUUUGUGAGAAAGGGAUGGUGGAGUGAGAGCCUUUGCCUUUAGGG | 0.202 |
| UUAACACAUUUGCAAGAUGAUUGACUCAAUCUUUGCCUAAUCCAAUGAGUGUUACAGAGAGCUUGCUGUGACUAGAACCAUAAAUCUUAAAGGGGGUAUGUGAUAAUAGA | 0.641 |
| CCAAACUGGACCCCUUCUUCAGACCCCCACAAACACCCCAGCUUUCUGGCUUUUCUGAGGGCUAGGGCAUGGUGCCCACCUCUCAAGUAUAAGAAACUGCAUCCUGCCUC | 0.64 |
| UGACAAGAAGAAGAACAAGUGCUUGUUAGGUGAGAGCAUUUCUUGCCUCCUAUUCACCCUGAACCUGGAGGCUAGACCUGAGGGAGUCGGACUGAGGGAUUGCAGAUGGG | 0.993 |
| CAUGACCCCUAGGGAGCUCUGACUGAGGAGGGAGGGUUGCUUCAGUCAGUGGCUCAGAGAUAGGGCUGGGCAGACAUCUACCUUAGGUAAAGUGGCUCCAGGGACUUAAG | 0.847 |

Series 3
Target: Ras GTPase-activating protein-binding protein 1, full length (G3BP1, Homo sapiens, UniProt Q13283)
Chain of UniProt Q13283 (whole entry, looked up): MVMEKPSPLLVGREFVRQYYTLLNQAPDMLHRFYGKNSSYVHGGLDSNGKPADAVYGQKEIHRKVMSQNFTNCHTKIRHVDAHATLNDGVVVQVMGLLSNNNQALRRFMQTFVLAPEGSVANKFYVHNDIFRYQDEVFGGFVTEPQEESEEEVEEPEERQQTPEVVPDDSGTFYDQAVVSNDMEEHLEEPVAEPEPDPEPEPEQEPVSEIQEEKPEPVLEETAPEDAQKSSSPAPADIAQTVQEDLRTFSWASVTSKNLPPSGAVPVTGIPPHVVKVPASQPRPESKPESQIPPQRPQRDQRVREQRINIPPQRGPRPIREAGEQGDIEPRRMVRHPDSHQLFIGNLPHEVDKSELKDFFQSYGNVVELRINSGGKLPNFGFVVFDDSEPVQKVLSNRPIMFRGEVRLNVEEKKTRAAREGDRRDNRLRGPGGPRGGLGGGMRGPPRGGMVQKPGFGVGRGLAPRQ
Method: RNA Bind-n-Seq
Molecule type: RNA
Medium: in vitro
Tested at: 200 nM
Notes: whole 134-nt RNA, ends assumed
With: 150 mM KCl
Relative to: input library
Reading: higher = stronger binding
| Oligonucleotide | log2 enrichment |
| --- | --- |
| GGGAGUUCUACAGUCCGACGAUCCUGUGCUACACAUCGUAUGUACCGAAUCGGGGAAAAAAAGGGGAAAAAGGGGUUUUUGGGGAAAGUAUUAUGUUACGCCGUUCGGAUCUGUGGAAUUCUCGGGUGUCAAGG | 0.0438 |
| GGGAGUUCUACAGUCCGACGAUCAGUCCUGUGCUACACAUCGUAUGUACCGAAUCGGCCCCCCGGCCCCCCGGCCCCCCGGAAAGUAUUAUGUUACGCCGUUCGGAUCUGCACUGGAAUUCUCGGGUGUCAAGG | -0.0269 |
| GGGAGUUCUACAGUCCGACGAUCUGGGAGGUGGAUUUUGUUUAUUUUUUUAGCUCAUUUCCAGGGGUGGGAAUUUUUUUUUAAUAUGUGUCAUGAAUAACGUUGUUUUUGAAAUGGAAUUCUCGGGUGUCAAGG | 0.123 |
| GGGAGUUCUACAGUCCGACGAUCAGUCCUGUGCUACACAUCGUAUGUACCGAAUCGGAAAGGUUUUUUUGGUUUUUUUGGAAAGUAUUAUGUUACGCCGUUCGGAUCUGCACUUGGAAUUCUCGGGUGUCAAGG | -1.68 |

Series 4
Target: Histone acetyltransferase KAT6A, winged helix 1, GST fusion (KAT6A, Homo sapiens, UniProt Q92794, residues 1-85)
Method: protein binding microarray
Molecule type: double-stranded DNA, one strand shown
Medium: in vitro
Tested at: not given
Notes: 8-mer, flanks averaged, mean of 2 arrays, mostly near background
Relative to: not given
Reading: higher = stronger binding
Construct (chain): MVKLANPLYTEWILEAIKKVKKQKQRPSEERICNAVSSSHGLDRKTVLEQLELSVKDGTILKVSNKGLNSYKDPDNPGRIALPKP
| Oligonucleotide | E-score |
| --- | --- |
| GAAGGGCA | -0.0655 |
| ATGAGGGC | -0.107 |
| CGGCGTAA | 0.319 |
| TCCTAGAA | -0.148 |
| AGCCTGAG | -0.0686 |
| AGCCTTGG | -0.185 |
| CTCAAACA | -0.0766 |
| GTACTGTA | 0.0512 |

Series 5
Target: Replicase polyprotein 1ab, polymerase (rep, Severe acute respiratory syndrome coronavirus 2, UniProt P0DTD1)
Observed: enzyme activity
Action: inhibitor
Tested at: 20 µM
| Structure (SMILES) | inhibition [%] |
| --- | --- |
| CNC[C@@H]1CC[C@@H](N)[C@@H](O[C@H]2[C@H](O)[C@@H](O[C@H]3OC[C@](C)(O)[C@H](NC)[C@H]3O)[C@H](N)C[C@@H]2N)O1 | -2.74 |
| CC1(CN2CCC(n3c(=O)[nH]c4ccccc43)CC2)OCc2ccccc2-n2cccc21 (stereo not shown) | -12.4 |
| O=C1c2cc(Cl)ccc2OC2CCON12 (stereo not shown) | -0.19 |
| CC(C)(C)C(=O)Oc1ccc(S(=O)(=O)Nc2ccccc2C(=O)NCC(=O)O)cc1 | -1.34 |
| COCCOC(=O)C1=C(C)NC(C)=C(C(=O)OC(C)C)C1c1cccc([N+](=O)[O-])c1 (stereo not shown) | -2.77 |
| Cc1cnc(Nc2ccc(F)cc2Cl)nc1-c1c[nH]c(C(=O)N[C@H](CO)c2cccc(Cl)c2)c1 | 2.16 |
| CN1[C@@H](CC(=O)c2ccccc2)CCC[C@H]1C[C@H](O)c1ccccc1 | 0.13 |
| CCCCC1(COC(=O)CCC(=O)O)C(=O)N(c2ccccc2)N(c2ccccc2)C1=O | 0.47 |
| C/C(=N\NC(=S)N1CCC1)c1ccccn1 | -2.38 |
| CN(C)CCCN1c2ccccc2CCc2ccccc21 | 14.2 |
| N#CCNC(=O)c1ccc(-c2ccnc(Nc3ccc(N4CCOCC4)cc3)n2)cc1 | 3.54 |
| CN1CCC(Nc2ncc3ncnc(Nc4ccc(F)c(Cl)c4)c3n2)CC1 | 4.93 |
| N#Cc1ccc(-c2ccc(S(=O)(=O)Nc3cccc(N)n3)cc2)cc1 | -3.56 |
| CCCCCCCCCCCCCCCCCC(=O)OC[C@@H](O)[C@H]1OC[C@H](O)[C@H]1O | -11.2 |
| C[C@@H]1COCCN1c1cc(=O)n2c(n1)N(Cc1cncc(Cl)c1)[C@H](C(F)(F)F)CC2 | -6.42 |
| N#C[C@@H]1C[C@@H]2C[C@@H]2N1C(=O)[C@@H](N)C12CC3CC(CC(O)(C3)C1)C2 | 1.26 |
| COC(=O)N[C@H](C(=O)N1CCC[C@H]1c1nc(-c2ccc3c(c2)O[C@@H](c2ccccc2)n2c-3cc3cc(-c4c[nH]c([C@@H]5CCCN5C(=O)[C@@H](NC(=O)OC)C(C)C)n4)ccc32)c[nH]1)C(C)C | 0.51 |
| CC/C(=C(\c1ccc(O)cc1)c1ccc(OCCNC)cc1)c1ccccc1 | 6.31 |
| CC1(C)C(/C=C/C=C/C=C/C=C2\N(CCCCS(=O)(=O)O)c3ccc4ccccc4c3C2(C)C)=[N+](CCCCS(=O)(=O)[O-])c2ccc3ccccc3c21 | 4.44 |
| CC(C)[N+](C)(CCOC(=O)C1c2ccccc2Oc2ccccc21)C(C)C | 31.6 |
| C[C@]12CC[C@@H]3c4ccc(O)cc4C[C@@H](CCCCCCCCC[S+]([O-])CCCC(F)(F)C(F)(F)F)[C@H]3[C@@H]1CC[C@@H]2O (stereo partly shown) | 0.98 |
| CNC(=N)NCCC[C@H](N)C(=O)O | -1.56 |
| Cc1[nH]cnc1-c1ccc(Cl)cc1 | 6.91 |
| NS(=O)(=O)c1ccc(S(=O)(=O)Nc2cccc3c(Cl)c[nH]c23)cc1 | 1.91 |
| C=C1/C(=C\C=C2/CCC[C@]3(C)[C@@H]([C@H](C)CCCC(O)(C(F)(F)F)C(F)(F)F)CC[C@@H]23)C[C@@H](O)C[C@@H]1O | 2.7 |

Series 6
Cell line: HEK-293T/ACE2
Tested at: concentration not given
Time: 16 (unit not given)
Relative to: vehicle
| SMILES | viability [%] |
| --- | --- |
| CCn1cc(C(=O)O)c(=O)c2cc(F)c(N3CCNC(C)C3)c(F)c21 (stereo not shown) | 103 |
| Cc1cc(/C=C/C#N)cc(C)c1Nc1ccnc(Nc2ccc(C#N)cc2)n1 | 54.2 |
| O=C(O[C@H]1CN2CCC1CC2)N1CCc2ccccc2[C@@H]1c1ccccc1 | 102 |
| CC(=O)OCC[N+](C)(C)C | 97.6 |

Excerpt of the above (series 5):
| Structure (SMILES) | inhibition [%] |
| --- | --- |
| N#C[C@@H]1C[C@@H]2C[C@@H]2N1C(=O)[C@@H](N)C12CC3CC(CC(O)(C3)C1)C2 | 1.26 |
| COC(=O)N[C@H](C(=O)N1CCC[C@H]1c1nc(-c2ccc3c(c2)O[C@@H](c2ccccc2)n2c-3cc3cc(-c4c[nH]c([C@@H]5CCCN5C(=O)[C@@H](NC(=O)OC)C(C)C)n4)ccc32)c[nH]1)C(C)C | 0.51 |
| CC/C(=C(\c1ccc(O)cc1)c1ccc(OCCNC)cc1)c1ccccc1 | 6.31 |
| CC1(C)C(/C=C/C=C/C=C/C=C2\N(CCCCS(=O)(=O)O)c3ccc4ccccc4c3C2(C)C)=[N+](CCCCS(=O)(=O)[O-])c2ccc3ccccc3c21 | 4.44 |
| CC(C)[N+](C)(CCOC(=O)C1c2ccccc2Oc2ccccc21)C(C)C | 31.6 |
